Measurements pooled from the literature.

Compound	organism	assay	system	conditions	scale	quantity	value
O=C1C=C(Br)/C(=C/Br)O1	Escherichia coli	OD600	JLD271 LasR reporter			growth-inhibitory concentration	≥ 20 µM
COc1ccc(CNc2nc(N3CCC[C@H]3CO)ncc2C(=O)NN)cc1Cl	Salmonella typhimurium	Ames test	TA98, TA100, TA1535, TA102, TA97a	5000, 2500, 1600 µg/plate, preliminary test		toxicity	toxic
COc1ccc(Cn2cc(Cn3cc4c5cc(Br)ccc5nc-4c4cc(F)ccc43)nn2)cc1	Giardia duodenalis				relative to: Caco-2 CC50 over Giardia IC50	selectivity index	7.4
CC12CC(O)C3CC1(OC1OC(CO)C(O)C(O)C1O)C3(COC(=O)c1ccccc1)C(=O)O2 (stereo not drawn)	Enterococcus faecalis		rat gut microbiota	12 h, anaerobic, SD rat microbiota 100%		conversion	45.4%
COC(=O)C(CCC(=O)O)NC(=O)C1OC(OC2C(OC3CCC4(C)C(CCC5(C)C4C(=O)C=C4C6CC(C)(C(=O)O)CCC6(C)CCC45C)C3(C)C)OC(C(=O)NC(CCC(=O)O)C(=O)OC)C(O)C2O)C(O)C(O)C1O (stereo not drawn)	Epstein-Barr virus		superinfected Raji cells		relative to: CC50 over EC50	therapeutic index	30
O=C(Cn1cc(Cn2cc3c4cc(Br)ccc4nc-3c3cc(F)ccc32)nn1)N1CCCCC1	Giardia duodenalis				relative to: Caco-2 CC50 over Giardia IC50	selectivity index	2
COC(=O)C(C)NC(=O)C1OC(OC2C(OC3CCC4(C)C(CCC5(C)C4C(=O)C=C4C6CC(C)(C(=O)O)CCC6(C)CCC45C)C3(C)C)OC(C(=O)NC(C)C(=O)OC)C(O)C2O)C(O)C(O)C1O (stereo not drawn)	Epstein-Barr virus		superinfected Raji cells		relative to: CC50 over EC50	therapeutic index	67
c1ccc(CN2CCOCCOCCN(CCCCCCCCCCCCCCN3CCOCCOCCN(CCCCCCCCCCCCCCN4CCOCCOCCN(Cc5ccccc5)CCOCCOCC4)CCOCCOCC3)CCOCCOCC2)cc1	Escherichia coli	propidium iodide uptake	tetracycline-resistant	1/2 MIC		membrane permeability	increased
Fc1ccc2c(c1)c1nc3ccc(Br)cc3c-1cn2Cc1cn(Cc2ccc(Cl)cc2)nn1	Giardia duodenalis				relative to: Caco-2 CC50 over Giardia IC50	selectivity index	4.8

A few entries again:
Compound	organism	assay	system	conditions	scale	quantity	value
Fc1ccc2c(c1)c1nc3ccc(Br)cc3c-1cn2Cc1cn(Cc2ccc(Cl)cc2)nn1	Giardia duodenalis				relative to: Caco-2 CC50 over Giardia IC50	selectivity index	4.8
